Published values of several laboratories.
Lines come from different studies, so protocols differ. Numbers after ± are the reported error.

O=C(N[C@H](Cn1ccnc1)c1ccc(Cl)cc1Cl)c1ccc(-c2nnc(-c3ccccc3)o2)cc1 (single isomer, unassigned)
remaining activity (Leishmania infantum CYP51; concentration not given): 96 ± 6.3%

CC(=O)Oc1ccccc1C(=O)O
PGE2 production (COX-2; A549 IL-1β activated; concentration not given, with: supernatant of platelets from treated blood): 3.3 ± 0.3 ng/mL

C[C@H]1CNCCc2ccc(Cl)cc21
CL/F (male Sprague-Dawley rat, plasma; subcutaneous, 0.5 mg/kg, single dose): 251 mL/min/kg

O=C1C=C(N(Cc2ccc(Cl)nc2)CC(F)F)CO1
EC50 (nicotinic acetylcholine receptor Spodoptera frugiperda; ion current, agonist, whole-cell voltage clamp; isolated Spodoptera frugiperda neurons): 2.3 µM

Oc1cccc(/C=C/c2ccccc2)c1
IC50 (Sp1 (human); reporter gene, inhibitor; SW1353; control transcription factor): > 25 µg/mL

N[C@@H](Cc1c[nH]cn1)C(=O)N[C@H](CO)[C@H](O)c1ccc([N+](=O)[O-])cc1
Kd (Escherichia coli 70S ribosome; binding, fluorescence polarization; with: BODIPY-erythromycin 4 nM): 0.24 ± 0.06 µM

C/C1=C/C[C@@H](/C(C)=C/c2csc(C)n2)OC(=O)C[C@H](O)C(C)(C)C(=O)[C@H](C)[C@@H](O)[C@@H](C)CCC1
EC50 (tubulin; tubulin assembly, promoter): 0.44 ± 0.02 µM

CN[C@@](C)(C[18F])C(=O)O
tracer uptake (MDA-MB-468 tumour model; host not given, muscle; 2 h, tumour-bearing): 0.9 %ID/g

O=S(=O)(CC1CS1)c1ccc(Oc2ccccc2)cc1 (stereo not shown)
soluble LRP1 level (LDLR; ELISA; apoE4-TR mice, soluble brain fraction; intraperitoneal, 25 mg/kg, 45 min before intracranial Aβ, brains collected 10 min later, with: intracranial Aβ(1-42); baseline: vehicle, higher = stronger reduction): > 2 fold

N#Cc1ccc(-c2ccc(-c3cccs3)o2)cc1F
inhibition (Salmonella enterica; sodium azide mutagenicity; TA1535; 10 µM, 48 h, with: sodium azide 2 µg/plate co-exposure): 83%

CC1(C)C=Cc2c(O)cc(/C=C/c3ccc(O)cc3)cc2O1
IC50 (Sp1 (human); reporter gene, inhibitor; SW1353; control transcription factor): > 25 µg/mL

CC[N+](CC)(CC)CC(=O)Nc1c(C)cccc1C
koff (sodium channel (rat brain), batrachotoxin-modified; open channel block, blocker, planar lipid bilayer, single channel; low-Kd period, +50 mV): 339 s⁻¹

GIGKWLHSAKKFGKAFVGEIMNS-NH2 (C-amide)
CD slope at 272 nm (15 bp duplex DNA; DNA binding, near-UV circular dichroism; peptide; room temperature, with: 1.66 µM DNA, peptide titrated): -0.113 ± 0.02

NC(=O)[C@@H]1CC[C@@H]2CN1C(=O)N2OS(=O)(=O)O
apparent IC50 (PBP5/6 Escherichia coli; Bocillin-FL binding, inhibitor; Escherichia coli, MG1655; 30 min, Tris-EDTA permeabilised, with: Bocillin-FL 25 µM): 480 ± 430 µM

[123I]c1cncc(OC[C@@H]2CCN2)c1
tissue/plasma ratio (SPECT; human, temporal lobe; intravenous bolus, 8.6 mCi; baseline: plasma): 11.4

Transthyretin
apparent oxytocin concentration (anti-oxytocin rabbit polyclonal IgG; cross-reactivity, oxytocin EIA, Enzo; 3 µg/mL): 1.8 ± 2.4 pg/mL

[Met(O)35]Aβ40
Msr activity increase (methionine sulfoxide reductase (rat); HPLC, dabsyl-Met(O); rat primary cortical neurons; 10 µM, 24 h; baseline: untreated cells): 25 ± 6%

CC(C)=CCC/C(C)=C/Cc1c(O)cc(/C=C/c2ccc(O)cc2O)cc1O
IC50 (Sp1 (human); reporter gene, inhibitor; SW1353; control transcription factor): > 25 µg/mL

Apolipoprotein A-II
apparent oxytocin concentration (anti-oxytocin rabbit polyclonal IgG; cross-reactivity, oxytocin EIA, Enzo; 3 µg/mL): 14.7 ± 3 pg/mL

cholecystokinin octapeptide
phosphorylation level (Yes kinase, rat; Western blot, refers to: Yes pY416; pancreatic acini; 100 nM, 1 min; baseline: untreated control): 334 ± 53%

CC(C)CC(N)C(=O)NC(CO)C(O)c1ccc([N+](=O)[O-])cc1 (stereo not shown)
Kd (Escherichia coli 70S ribosome; binding, fluorescence polarization; with: BODIPY-erythromycin 4 nM): 36 ± 6 µM

CC(=O)C[C@@H](c1ccccc1)c1c(O)c2ccc(O)cc2oc1=O
Vmax1 (UGT; refers to: 4-glucuronide; human liver microsomes): 19.7 nmol/min/mg protein

CC(C)CCCC(C)CCN1CCn2cc(C(=O)NCc3ccc(F)cc3F)c(=O)c(O)c2C1=O (stereo not shown)
EC50 (HIV-1 integrase wild type; viral replication; HOS, HIV-1; single-round vector): > 0.02 µM

complement C3
apparent oxytocin concentration (anti-oxytocin rabbit polyclonal IgG; cross-reactivity, oxytocin EIA, Enzo; 3 µg/mL): 4.4 ± 2.3 pg/mL

NC(Cc1c[nH]c2ccccc12)C(=O)NC(CO)C(O)c1ccc([N+](=O)[O-])cc1 (stereo not shown)
Kd (Escherichia coli 70S ribosome; binding, fluorescence polarization; with: BODIPY-erythromycin 4 nM): 12 ± 2 µM

Clc1cnc(Oc2ccc(Oc3ncc(Cl)cc3Cl)cc2)c(Cl)c1
deuterium exchange change (mouse CAR LBD in CAR:RXR; binding, HDX-MS; concentration not given, 10 to 3600 s, pH 8, 4 °C, residues 330-338, helix H10; baseline: unliganded CAR:RXR): -32%

NC(CO)C(=O)NC(CO)C(O)c1ccc([N+](=O)[O-])cc1 (stereo not shown)
Kd (Escherichia coli 70S ribosome; binding, fluorescence polarization; with: BODIPY-erythromycin 4 nM): 8.4 ± 2.4 µM

KWWIWAG
recovery yield (adeno-associated virus 9; capsid binding, bind-and-elute chromatography; peptide; peptide ligand resin, MgCl2 elution): 57.2%

NC(=O)CC[C@H](N)C(=O)N[C@H](CO)[C@H](O)c1ccc([N+](=O)[O-])cc1
Kd (Escherichia coli 70S ribosome; binding, fluorescence polarization; with: BODIPY-erythromycin 4 nM): 6.3 ± 5.1 µM

α1-acid glycoprotein
apparent oxytocin concentration (anti-oxytocin rabbit polyclonal IgG; cross-reactivity, oxytocin EIA, Enzo; 3 µg/mL): 3.9 ± 2.3 pg/mL

CC(C)[C@H](NC(=O)CNC(=O)CNC(=O)CNC(=O)[C@H](CCCNC(=N)N)NC(=O)[C@H](CCCNC(=N)N)NC(=O)[C@H](CCCNC(=N)N)NC(=O)[C@H](CCC(N)=O)NC(=O)[C@H](CCCNC(=N)N)NC(=O)[C@H](CCCNC(=N)N)NC(=O)[C@H](CCCCN)NC(=O)[C@H](CCCCN)NC(=O)[C@H](CCCNC(=N)N)NC(=O)CNC(=O)[C@@H](N)Cc1ccc(O)cc1)C(=O)N[C@H](C(=O)N[C@H](C(=O)N[C@@H](C)C(=O)O)[C@@H](C)O)C(C)C
protein interaction (ClpP and alpha-synuclein ΔN (human); inhibitor, co-immunoprecipitation; HEK293T cells): inhibited

CC(=O)NC(Cc1ccc(O)cc1)C(=O)NC(CO)C(O)c1ccc([N+](=O)[O-])cc1 (stereo not shown)
Kd (Escherichia coli 70S ribosome; binding, fluorescence polarization; with: BODIPY-erythromycin 4 nM): 140 ± 50 µM

N#Cc1ccc(-c2ccc(-c3ccco3)o2)c(F)c1
inhibition (Salmonella enterica; sodium azide mutagenicity; TA1535; 20 µM, 48 h, with: sodium azide 2 µg/plate after pre-exposure): 103%

IWWHIAKFG
recovery yield (adeno-associated virus 9; capsid binding, bind-and-elute chromatography; peptide; peptide ligand resin, MgCl2 elution): 61.7%

Arginine vasopressin
apparent oxytocin concentration (anti-oxytocin rabbit polyclonal IgG; cross-reactivity, oxytocin EIA, Enzo; 3 µg/mL): 25.2 ± 2.9 pg/mL

CCC(C)C(N)C(=O)NC(CO)C(O)c1ccc([N+](=O)[O-])cc1 (stereo not shown)
Kd (Escherichia coli 70S ribosome; binding, fluorescence polarization; with: BODIPY-erythromycin 4 nM): 36 ± 10 µM

O=C/C=C/c1ccccc1
maximal peptide depletion (lysine-containing peptide; mass spectrometry; 24 h, pH 10.2, room temperature): -17%

CP(=O)(O)CCC(N)C(=O)O (stereo not shown)
herbicidal activity (Echinochloa crus-galli; 60 g/ha, 13 days, post-emergence spray; baseline: untreated (0%), complete kill (100%)): 80%

COC[C@H]1OC(=O)c2coc3c2[C@@]1(C)C1=C(C3=O)[C@@H]2CCC(=O)[C@@]2(C)C[C@H]1OC(C)=O
phosphorylated peptide (protein kinase B (human); enzyme activity, single-cell CE-LIF, refers to: peptide VI-B; EpCAM-positive PDX tumour cells; 0.5 µM; baseline: total peptide): 1%

O=[N+]([O-])c1ccc(Cl)c([N+](=O)[O-])c1
EC50 (rhodopsin wild type-Rluc fusion; reporter gene; HEK293; 24 h): 1.52 µM

Repeated from above:
Apolipoprotein A-II
apparent oxytocin concentration (anti-oxytocin rabbit polyclonal IgG; cross-reactivity, oxytocin EIA, Enzo; 3 µg/mL): 14.7 ± 3 pg/mL

CC(C)CCCC(C)CCN1CCn2cc(C(=O)NCc3ccc(F)cc3F)c(=O)c(O)c2C1=O (stereo not shown)
EC50 (HIV-1 integrase wild type; viral replication; HOS, HIV-1; single-round vector): > 0.02 µM

C[C@H]1CNCCc2ccc(Cl)cc21
CL/F (male Sprague-Dawley rat, plasma; subcutaneous, 0.5 mg/kg, single dose): 251 mL/min/kg

IWWHIAKFG
recovery yield (adeno-associated virus 9; capsid binding, bind-and-elute chromatography; peptide; peptide ligand resin, MgCl2 elution): 61.7%
